Literature values, collected from citations in different studies.
Protocols differ between the studies behind these lines. ± gives the spread as reported.
Organism: Plasmodium falciparum

The IC50 of Cn1cc2c3c1C(=O)c1[nH]cc(-c4ccc(O)cc4)c1C3=[N+](C)CC2 is reported as < 50 nM (parasite growth; 3D7, chloroquine-sensitive).
With CCCCCC(=O)N[C@H](CC(=O)N(CC)CC)C(=O)N[C@@H](Cc1ccc(F)cc1)C(=O)N[C@@H](Cc1ccc(F)cc1F)C(=O)[C@@]1(C)CO1 the IC50 was 9.2 ± 1.8 nM (parasite killing).
CC1=C[C@@H](C)[C@H]2[C@@H]3C(=O)C(Cl)(Cl)C(=O)[C@H](C)C(=O)O[C@@H](C)/C=C/C=C\[C@@H](C)[C@@H]3C=C[C@@H]2C1 gave an IC50 of 9.1 nM (blood stage).
For O=C(C1CCN(c2nnnn2-c2ccccc2)CC1)N1CCc2ccccc2C1, the IC50 was ~1000 nM (3D7).
CC[C@H](C)[C@@H]1NC(=O)[C@H](CCC(N)=O)NC(=O)[C@H](CCC(N)=O)NC(=O)[C@@H]2CCCN2C(=O)[C@@H]2CCCN2C(=O)[C@H](CO)NC(=O)[C@H](CCSC)NC(=O)[C@H](CCCNC(=N)N)NC(=O)[C@H]([C@@H](C)O)NC(=O)[C@H]([C@@H](C)O)NC(=O)[C@H](Cc2ccccc2)NC(=O)[C@@H](NC(=O)[C@H](CO)NC(=O)[C@H](Cc2ccccc2)NC(=O)[C@H](CC(C)C)NC(=O)[C@@H]2CCCN2C(=O)[C@H](CC(C)C)NC(=O)[C@H](Cc2ccccc2)NC(=O)[C@H](CCC(=O)O)NC(=O)[C@H](C)NC(=O)[C@H](Cc2ccccc2)NC(=O)[C@@H](N)C(C)C)CSSC[C@@H](C(=O)N[C@@H](CC(C)C)C(=O)N[C@@H](CC(N)=O)C(N)=O)NC1=O gave an IC50 of ~30 nM (parasite growth; 3D7).
The IC50 of COc1ccc2nc3cc(Cl)ccc3c(NCCN3CCN(C)CC3)c2c1 is reported as 1880 nM (gametocytes).
CCN(CC)c1ccc2nc3c4ccccc4/c(=N/c4ccncc4)cc-3oc2c1 has an IC50 of 3 ng/mL (parasite growth; K1).
COc1cc(O)c(-c2ccc(OC)c3c(O)cc(C)c(-c4cc(-c5c(O)cc(OC)c6c5C[C@H](C)N(C)[C@@H]6C)c5cc(C)cc(OC)c5c4O)c23)c2c1[C@@H](C)N(C)[C@H](C)C2 has an IC50 of 4 nM (K1).
The IC50 of O=C(O)[C@@H]1Cc2c([nH]c3ccccc23)[C@@H](c2ccc(Cl)cc2)N1 is reported as 1170 ± 60 nM (parasite growth; Dd2).
For CC(C)C(C(=O)N[C@@H](Cc1ccccc1)[C@H](O)CN1CCN(Cc2ccc(Br)cc2)CC1)N1C(=O)c2ccccc2C1=O (stereo partly shown), the IC50 was 1250 nM (parasite growth; 3D7; 48 h).
The IC50 of CNC(=O)[C@@H]1Cc2c([nH]c3ccccc23)[C@@H](c2ccc(Cl)cc2Cl)N1 is reported as 190 ± 30 nM (parasite growth; Dd2).
O=C(/C=C/c1ccc(Cl)c(Cl)c1)N1CCC(CCN2CCC(c3c[nH]c4cnccc34)CC2)CC1 gave an IC50 of 200 nM (gametocytes).
With COC(=O)C1=CO[C@@H](C)[C@@H]2Cn3ccc4c5ccccc5nc-4c3C[C@H]12 the IC50 was 109 nM (W2; 72 h).

Some of these lines once more:
For O=C(C1CCN(c2nnnn2-c2ccccc2)CC1)N1CCc2ccccc2C1, the IC50 was ~1000 nM (3D7).
